Published values gathered from unrelated publications.
Each numbered part is a random draw from the data of one study; scales do not carry over between parts.

Series 1 — technique: protein-binding microarray; molecule type: double-stranded DNA, one strand shown; sample: in vitro; tested at: 940 nM top; notes: 60-bp whole probe; with: salmon DNA 0.4 mg/ml; baseline: random background probes; reading: higher = stronger binding; shared flanks, not repeated: GCCTAGCAC … GTCTTGATTCGCTTGACGCTGCTG
Target: Interferon regulatory factor 5, full length, phosphomimetic (IRF5, Homo sapiens, UniProt Q13568-2, residues 1-514, S451D/S453D/S456D/S462D)
Sequence	fitted relative affinity [z-score]
CTGTGTACATCTCTCTTAAAGTGCTAG	0.433
GACGTTATCCTACTGCTGACGTGCTAG	0.275
TCACGCTTCATCTCCCAGACTGTGCTA	0.502
AGTCTCTTCTGGGACTCATGGTGCTAG	0.524
GACGGTTTCGATTTTCGGGACGTGCTA	9.28
TTAGGTCCCCTTCTCCTTTAGTGCTAG	0.381
GACGGACTTGGACTGGGGACGTGCTAG	-0.567
GACGATTTTAGACTGGAGACGTGCTAG	-0.301
GACGGACTGCTTACCCTGACGTGCTAG	-0.218
AGAGTCACCCATCTCAACAAGTGCTAG	0.354
TTAGGTTCCCTTTGCCTTTAGTGCTAG	0.563
GACGGTTTTGGGTTTCGGGACGTGCTA	3.92
TTAGGTATCGGGTTTCGGATAGTGCTA	6.71
TTTACTTTCTTTTTTTCTTTGTGCTAG	2.94
TCATTTTTAGAAATTTTTACTGTGCTA	0.608
TCTATCTGCAGACTCTCACAGTGCTAG	0.902
TTAGAACTGGGGGTTCGATTAGTGCTA	0.942
TGATCTTCCTTCATGGCCTGGTGCTAG	0.143
GACGGACTTCTTATCCTGACGTGCTAG	0.125
TTACGTATCGGGTATCGGTTAGTGCTA	6.3
GACGAACTGAGTATCGAGACGTGCTAG	1.54
TCAGTTTTGAGCTCTGTCACTGTGCTA	0.207
GACGGTCTCGTTATCGGGACGTGCTAG	1.49
TTTGGACTGCTTTTCCTTTAGTGCTAG	-0.000931
TTACATTTCGGGTTTCGATTAGTGCTA	6.57

Series 2 — technique: protein binding microarray; molecule type: double-stranded DNA, one strand shown; sample: in vitro; tested at: not given; baseline: not given; reading: higher = stronger binding
Target: Histone acetyltransferase KAT6A, both winged helices, GST fusion (KAT6A, Homo sapiens, UniProt Q92794, residues 1-181)
Notes: 8-mer, flanks averaged, mean of 2 arrays, mostly near background
Target sequence (chain): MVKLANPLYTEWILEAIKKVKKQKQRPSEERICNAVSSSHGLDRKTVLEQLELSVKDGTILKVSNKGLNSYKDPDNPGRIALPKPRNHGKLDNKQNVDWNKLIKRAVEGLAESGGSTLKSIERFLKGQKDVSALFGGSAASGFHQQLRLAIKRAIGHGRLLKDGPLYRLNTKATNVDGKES
Sequence	E-score
AGTCGTAT	-0.0689
ATCATCTA	0.024
AGGACCAC	-0.133
TAGTAGGA	-0.153
GCAGGTAA	0.017
CCGTCCTC	0.0863
GATCTCTA	-0.102
AACATCGG	0.0577
AATGGGCC	-0.0735
AGGGGTCA	-0.291
TAAGTTGA	-0.0657
ATCAGCTG	-0.0438
ACGACGCA	0.0219
GAATTCTA	-0.0611
GAGTTAAA	-0.0875
GCGCTACC	0.3
AATGTTTC	0.0777
CCGGATGC	0.152
ACGTGGGA	-0.115
AGCCAAGA	-0.227
CGCCAGGC	0.177
GAACACAC	0.0808
CGAGAACG	0.169
TCCCTCCA	-0.122
ACGGTAAT	0.185

Series 3 — technique: RNA Bind-n-Seq; molecule type: RNA; sample: in vitro; tested at: 365 nM; baseline: no-protein control; reading: higher = stronger binding
Target: RNA binding protein fox-1 homolog 2, RRM domain, GST-SBP tag (RBFOX2, Homo sapiens, UniProt O43251-10, residues 100-194)
Notes: natural RNA segment, single round, ends assumed
Shared flanks, not repeated: GGGAGUUCUACAGUCCGACGAUC … UGGAAUUCUCGGGUGCCAA
Target sequence (chain): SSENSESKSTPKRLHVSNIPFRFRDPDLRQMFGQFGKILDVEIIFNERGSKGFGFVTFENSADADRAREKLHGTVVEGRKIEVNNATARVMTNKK
Sequence	RBNS enrichment (R)
AUCUAUUUUUUUUUUUGACAGAGUCUUGCUCUGUCACCCAGGCUGGCGUACAGUGGUACGAUCUCAGCUCACUGCAUCCUCUGCCUCCCCCAGUUCAAGUGAUUCUUCUG	1.69
CUUGAUCUGAAAUCCACAAUUAGACCACAAUGCACCUUUGGUUGUAUCCAUAAAGGAUGCUAGCCUGCCUUGUACUAAUGUUUUAUAUAUUAAAAAAAAAAAAUCUAUCA	0.567
UCAGAAAUUUGAUUUAUUCUUGGACUGUACUCUUCGCAUGGACUGGGAAGUUCUUUUAAAUCAUACUAUUAAGACGACCAUCUCUUCUGUUAAAUUGCAGUACGUGUUAU	2.74
CAUAGUUAAAGCAUGUGUUCACACUGUGUAAACAUUCACAGAAGACUUUUCCUCGUGUGUUGUUGACUCUUUAAACAUAACAGGUAUUAUUAAAAUUAACUGUUAACUGA	1.1
CAAAUAAAACCAAAUCUUUUGUCAACAGGAUGAAACCCAUCUUAAAGGAAAGAAAAGGAAUUGGUGUGAAGAGAGAAGUUAGAGAAGGGAAAUGCAGUGAAUUACUAUCU	0.628
CACCAGGUGGCAGCAGCCAUCCGUUAUUAUUUCCAAUGGAGACCUAGCCCAGGCCAAGGUAAAGUUAGUUAAUAGCAUUGGGAUAUAGUCACUGUAAUGGUGCUAUUAAC	0.331
AAGAGCCUGGACAUGCCUACCCUGAAAGCAGCUGCCUUCAUUACCCUUUUCUGUGCGCCUGUUCUGAAGCCAACUUAAACCUGUCCACAUCUUCACUACCAUUCGCCCUU	0.47
CUGGAUCUCUGAUUAUCUUGUGAUCAUAGCACCUGCUGUCGGCACACUCCCGUGAGUCCUGUGGUCAGGGUUUCAGGAUAGGAGGUGGAGGUUUGGGUUAACGUGGGAAA	0.525
AGGAACUCAGUUAAAAUGCAGUUGAAGAAUGUCAUCUCCCGAAUUGCUGUCACUUUGGCGAGGGAGUGGAUAUAGGGCAUGUCACAAAAGAACAAAAUAACCCGACCUUU	1.43
GUGUUUUAAGAAGCACAUGGCCUCAUUUUCCUUAGAAACAAGACAAAGCCUUUUUAAAAUGUUUUUUUUUCACUUUAAAAUAGGGUAUUCAAAGUGGAGUAACGUGUAUU	0.428
CUGCCAUCCCAUAGAUUCUGAAGGGCUCCUCUCCUCCGGUCACGCUGACCAACUGCCAAGCUCGCUUUGCUGCCCAGAGCACUGUCCCCUCACAGCAAGCACAAGUUGUC	0.711
UUUGUGUGGAUUGAGGUGUUCAGAAAUACCAACCAUAAAAAUGUAAUCUAGUUGGCAAAGGUGUGCGCUAAAACACGGAACCGAACAUGCAUUGAUUUGGAUAACUUUUG	0.434

Series 4 — technique: universal PBM; molecule type: double-stranded DNA, one strand shown; sample: in vitro; tested at: 600 nM; reading: higher = stronger binding
Target: Sal-like protein 4, full length isoform A (SALL4, Homo sapiens, UniProt Q9UJQ4, residues 1-1053)
Chain of UniProt Q9UJQ4 (whole entry, looked up): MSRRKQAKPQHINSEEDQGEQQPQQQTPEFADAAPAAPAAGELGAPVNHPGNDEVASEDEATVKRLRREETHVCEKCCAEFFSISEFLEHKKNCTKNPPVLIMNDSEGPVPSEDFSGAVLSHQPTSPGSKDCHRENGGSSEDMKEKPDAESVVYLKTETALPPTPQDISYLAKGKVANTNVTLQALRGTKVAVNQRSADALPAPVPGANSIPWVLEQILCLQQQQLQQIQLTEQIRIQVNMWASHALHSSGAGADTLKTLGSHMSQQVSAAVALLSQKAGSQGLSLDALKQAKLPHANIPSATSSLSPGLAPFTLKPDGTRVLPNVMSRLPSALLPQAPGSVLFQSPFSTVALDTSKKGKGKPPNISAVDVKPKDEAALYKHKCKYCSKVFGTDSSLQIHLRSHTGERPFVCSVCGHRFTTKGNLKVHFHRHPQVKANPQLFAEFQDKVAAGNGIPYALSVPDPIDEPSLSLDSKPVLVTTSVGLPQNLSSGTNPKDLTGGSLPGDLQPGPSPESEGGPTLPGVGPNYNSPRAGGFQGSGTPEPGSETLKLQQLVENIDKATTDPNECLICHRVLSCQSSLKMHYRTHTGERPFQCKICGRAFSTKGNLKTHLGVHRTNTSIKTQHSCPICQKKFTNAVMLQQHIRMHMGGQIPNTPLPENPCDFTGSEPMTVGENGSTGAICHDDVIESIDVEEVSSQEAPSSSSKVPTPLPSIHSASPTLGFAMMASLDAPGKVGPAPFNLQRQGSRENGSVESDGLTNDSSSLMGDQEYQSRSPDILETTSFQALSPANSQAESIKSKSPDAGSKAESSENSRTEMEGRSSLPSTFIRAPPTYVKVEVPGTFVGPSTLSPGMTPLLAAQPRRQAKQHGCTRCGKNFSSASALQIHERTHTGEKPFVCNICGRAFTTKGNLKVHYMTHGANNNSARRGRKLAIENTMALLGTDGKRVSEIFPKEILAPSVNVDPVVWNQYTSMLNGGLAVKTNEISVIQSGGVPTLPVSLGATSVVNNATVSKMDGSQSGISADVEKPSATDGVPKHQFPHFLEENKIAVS
Notes: 8-mer, flanks averaged, mean of replicates
Sequence	E-score
ATTCTCTA	0.192
GGACCTAC	-0.0482
CCATCATA	0.195
ACAGGGAA	-0.133
TCCGCCAA	-0.174
ACGCTTAG	-0.0923
ACAAGAGT	0.0893
ATGCGGGG	-0.204
CTTGATAC	0.113
CGAAAAAG	0.00352
GTCCGCTA	-0.122
AAGCCCTG	-0.238
AGGGTGGG	-0.199
ACTCTGTG	-0.007
AATTCCAT	0.293
CTAAGTGC	-0.0673
CGGAATTA	0.167
GTTAGCCA	-0.168
CTACTATC	0.162
GATTTGAA	0.243
GGGATTTA	0.0466
TCCTTCCA	0.00792
AGTTTTGC	0.274
ATCCGTCA	0.0184
AATCTGAA	0.209

Series 5 — technique: competition protein-binding microarray; molecule type: double-stranded DNA, one strand shown; sample: in vitro; tested at: 2 µM; with: Cbf1 competitor, 0.05 µM; reading: higher = stronger binding; shared flanks, not repeated: … GTCTTGATTCGCTTGACGCTGCTG
Target: Phosphate system positive regulatory protein PHO4, full length, GST-tagged (PHO4, Saccharomyces cerevisiae, UniProt P07270, residues 1-312)
Notes: whole 60-bp probe, lowest competitor level
Target sequence (chain): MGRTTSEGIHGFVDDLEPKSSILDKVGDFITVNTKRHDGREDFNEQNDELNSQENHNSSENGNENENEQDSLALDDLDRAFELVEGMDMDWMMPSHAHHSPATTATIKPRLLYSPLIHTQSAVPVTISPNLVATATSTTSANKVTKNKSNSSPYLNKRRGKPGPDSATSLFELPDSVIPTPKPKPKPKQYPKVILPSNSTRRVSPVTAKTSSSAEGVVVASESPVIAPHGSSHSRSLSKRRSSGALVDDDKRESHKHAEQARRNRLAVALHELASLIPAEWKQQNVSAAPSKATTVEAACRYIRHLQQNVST
Sequence	fluorescence intensity [a.u.]
CTTTCCCGATCTTGATTGGTGGGTGTAGCACATTTG	4140
CTCGTAATCTGGTCCCACGTCTTGCACTATATGCAG	6720
TGGAGGGTGTACTATCACATGCAGCCTTTGTTTCTA	7470
CTAACGAAGGTTTGAGGAGTGGGTGACAAGCCAAGT	3790
GCACTTGCTGCCTGTCACCTGGTACAAAGCCATATG	4290
TTAAAACAGAATCGGCACGTGTCCTGATTGCTTCCG	16300
AAAGCGGTAATTTGGAGGGTGGGTGCAGATATCTAT	4530
AACAAGTATTGAATGCACACGCAAATAGCTTAGGCC	6220
TGTCAATGTCGCCGTCACATGGGAAGAAAGGTGGGA	9650
AGAAAGACCCAGAGGCACATGCAAGATAGTTGTGCC	10500
AAAGCGGTAATTTGTCACACGACTTCACATATCTAT	5710
CAATTCGGCAAGAGGTGTTCTGCGCATCTGAATTAT	3440
CTTTCCCGATCTTGTCACGAGACTTTAGCACATTTG	7320
TGCGCAACAACTTTTCACGTGGAGTTATGTCTAGAA	14000
TGAATAGCAGCATTCAATGTGACGAACAACCCGGAG	3940
AAATTACTAAGTTGGGTTGTGGGTGACGCCGTATGA	4560
TTTTTTGCGTCCTACAGCGTGATGGAAATTTCGCCT	5900
CGGGGTTAAGTTTTTCACGTGTTGTGCTTGCAGCAG	14700
CGCCCGTATTCGGGCAACGTGAGCCCAAATACGCCT	8710
GTCTTGTCTCATTGTCACTTGACTTTCCCCACTTCA	3640
AGGAAAAGTTACCTGCGCATGCCGATGTCTACACTT	8360
ATATTAGCTGAAAACCACATGGACGCAGCATTCAGT	9070
GGGAAACGCCCAGAGCACGTGCTCCTGCCCGACACC	19500
